Published values from different studies.
Each line is one published result; not all experiments were run side by side. Several values in a cell are separate wells, animals, samples, runs or records. ± marks the error that the study gave.

Clc1nc(NCc2ccco2)c2[nH]cnc2n1 — ΔPSI (FD iPSC-derived cardiomyocytes; alternative splicing, RNA-seq, refers to: GRB7 exon chr17(+):39745912-39746000; unit not given; reference: DMSO minus compound): -0.301
CC/C(=N\NC(=O)NCc1cccc(O)c1)c1ccc(O)c(C)c1O — relative cell number (SK-OV-3; ATP; 10 µM, 4 days, 3D gellan gum culture; reference: untreated): 274%
Cn1cc(Nc2nccc(-c3ccc4c(c3)CN(C3COC3)CC[C@H]4NC(=O)c3cn(C(C)(C)C)nn3)n2)cn1 — pathway activation z-score (mouse splenic B cells; refers to: IL-23 signalling pathway; 30 mg/kg, IgD-activated in vivo; reference: vehicle, direction not given): 2.33
CC(C)=CCNc1ncnc2c1ncn2[C@@H]1O[C@H](CO)[C@@H](O)[C@H]1O — AP-TGFα release (mock-transfected cells; TGFα shedding, agonist; 1 nM; reference: unstimulated vehicle control): -0.92% and 0.58% and -0.27%
Cn1cc(-c2ccc(-c3cncc(Cl)c3N3CCC4(CCNC4=O)CC3)cc2)cn1 — log2 fold change (COLO 205; gene expression, microarray, refers to: EFNA3 mRNA; concentration not given, 2 h; reference: untreated cells): 2.1
Cc1nn(-c2nc3c(F)cc(F)cc3s2)c(O)c1C(c1ccccc1C(F)(F)F)c1c(C)nn(-c2nc3c(F)cc(F)cc3s2)c1O — inhibition (THP1-Dual; IFN luciferase reporter; 1.25 µM, with: HT-DNA): 1.19% and -3.18% and -13.3% and -14.4% and -0.433% and -10.7%
N#C/C(=C\c1c[nH]nc1-c1ccc2ccccc2c1)C(=O)O — mRNA level (LX-2; qPCR, refers to: ACTA2; 10 µM, hepatic stellate cell activation, with: TGFβ; reference: untreated): decreased
CCCCc1oc2ccc(NS(C)(=O)=O)cc2c1C(=O)c1ccc(OCCCN(CCCC)CCCC)cc1 — fold change (human embryonic stem cell aggregates; mRNA level, microarray, refers to: CYP26A1; 0.5 µM, 120 h; reference: untreated, down-regulated): 2.3 fold
CCOC(=O)C1=C(C)NC2=C(C(=O)OC(c3ccc(OC)c(OC)c3)C2)C1c1cccc(Cl)c1 (stereo not drawn) — EC50 (J774.A1; cytotoxicity): > 20 µM
Cc1cnc(NC2CCOCC2)nc1-n1cnc(C(=O)NC(CN)c2cc(F)cc(Cl)c2)c1 (stereo not drawn) — sub-G0 cells (MINO; flow cytometry; 1 µM, 24 h): 16.7%
Cc1ccc2c(c1)C(=O)[C@]1(O)CCN(c3ccc4nc(C)ccc4c3)C1=N2.Cl — activation (murine Trp53-/- cells; refers to: RAS, ERK1/2 and SRC; 5 µM, 48 h; reference: untreated): 2 to 3 fold
O=C(/C=C/C=C/C=C/C1CCCCC1)NC1=C[C@@](O)(/C=C/C=C/C=C/C(=O)NC2=C(O)CCC2=O)[C@@H]2O[C@@H]2C1=O — GI50 (HT-1080; cell growth, CellTiter-Glo; 78 h): 19.7 µM
CNC(=O)c1cc(Oc2ccc(NC(=O)Nc3ccc(Cl)c(C(F)(F)F)c3)cc2)ccn1 — selectivity ratio (MOLM-13; cell growth; 72 h; reference: GI50 resistant FLT3-ITD-D835Y over parental): 87.2
O=C(C[C@@H](C(F)F)n1ccc(F)n1)N1CCC(O)(Cn2cnc3c(cnn3-c3ccc(F)cc3)c2=O)CC1 — G1 phase cells (CHP-212 resistant; PI flow cytometry; 0.3 µM, 24 h): 73.1%
CCOC(=O)C1=C(C)NC2=C(C(=O)OC(c3ccc(Cl)c(OC)c3)C2)C1c1ccccc1Cl (mixture of isomers) — EC50 (J774.A1; cytotoxicity): > 20 µM
Cc1cc(OCc2nnc(SC3CCCC3)n2-c2cccnc2)ccc1-c1ccc(S(C)(=O)=O)cc1 — EC50 (BRD4-HiBiT cells; BRD4 degradation rescue, inhibitor; 2 h, 50% degradation rescued, with: dBET6 500 nM): 8.71 µM
CCn1cc(-c2cc(Cn3ccoc3=N)cc3c2CCN([C@@H](C)c2cc(OC)ccn2)C3=O)c(C(F)(F)F)n1 — EC50 (MDA-MB-175-VII; cell growth, inhibitor; 120 h): > 30 µM
CCOC(=O)C1=C(C)NC2=C(C(=O)OC(c3ccc(OC)c(OC)c3)C2)C1c1ccc([N+](=O)[O-])cc1 (stereo not drawn) — EC50 (J774.A1; cytotoxicity): > 20 µM
CC(NCCc1ccc(O)cc1)C(O)c1ccc(O)cc1 (stereo not drawn) — viability (MDA-MB-231 BAX/BAK siRNA knockdown; CellTiter-Glo; concentration not given; reference: normalised luminescence): 54.6% and 40%
NS(=O)(=O)OC[C@@H]1C[C@@H](n2ccc3c(N[C@H]4CCc5ccccc54)ncnc32)C[C@@H]1O — EC50 (BRD4-HiBiT cells; BRD4 degradation rescue, inhibitor; 8 h, 50% degradation rescued, with: dBET6 500 nM): 0.0908 µM
CCCC1=C(C(=O)OCC)C(c2ccc(Cl)cc2C)C2=C(CC(c3ccc(Cl)c(OC)c3)CC2=O)N1 (mixture of isomers) — EC50 (J774.A1; cytotoxicity): > 20 µM
CCc1ccc(NC(=O)Nc2c[nH]c3ccccc23)cc1 — phospho-TBK1/TBK1 ratio (THP1-Dual; TBK1 phosphorylation, inhibitor, Western blot densitometry; 20 µM, with: HT-DNA): 0.374 and 0.504 and 0.517
C=CC(=O)Nc1cccc(Oc2nc(Nc3ccc(N4CCN(C)CC4)cc3)nc3ccoc23)c1 — maximal inhibition (TMD8 RAC2 knock-out; calcium flux, FLIPR): > 60%
Cc1ccc(CNC(=O)Cn2cc(CSc3nc4ccccc4[nH]3)nn2)cc1 — cytotoxicity (HEK293; MTT; 62.5 ppm): 86.2%
C=Cc1c2[n-]c(c1C)/C=c1\[n-]/c(c(C)c1C=C)=C\c1[n-]c(c(CCC(=O)O)c1C)/C=c1\[n-]c(c(C)c1CCC(=O)O)=C2.[Sn+4] — fold change (SH-SY5Y; RNA-seq, refers to: SYNJ2 mRNA; 5 µM, 5 h; reference: untreated cells): 2.44
CC(C)c1c(C(=O)Nc2ccccc2)c(-c2ccccc2)c(-c2ccc(F)cc2)n1CC[C@@H](O)C[C@@H](O)CC(=O)O — viability (MDA-MB-231 BAX/BAK siRNA knockdown; CellTiter-Glo; concentration not given; reference: normalised luminescence): 37.9% and 44.1%
Cc1nn(-c2nc3c(F)cc(F)cc3s2)c(O)c1C(c1cccc(C(F)(F)F)c1)c1c(C)nn(-c2nc3c(F)cc(F)cc3s2)c1O — inhibition (THP1-Dual; IFN luciferase reporter; 40 µM, with: HT-DNA): 101%
CC[C@H](C)[C@H](NC(=O)[C@H](C)NC(=O)CNC(=O)[C@H](Cc1ccccc1)NC(=O)[C@H](CC(N)=O)NC(=O)[C@H](CC(N)=O)NC(=O)[C@H](CO)NC(=O)[C@H](CO)NC(=O)[C@H](Cc1c[nH]cn1)NC(=O)[C@@H](NC(=O)[C@H](CC(C)C)NC(=O)[C@H](Cc1ccccc1)NC(=O)[C@H](CC(N)=O)NC(=O)[C@H](C)NC(=O)[C@H](CC(C)C)NC(=O)[C@H](CCCNC(=N)N)NC(=O)[C@H](CCC(N)=O)NC(=O)[C@@H](NC(=O)[C@H](C)NC(=O)[C@@H]1CSSC[C@H](NC(=O)[C@@H](N)CCCCN)C(=O)N[C@@H](CC(N)=O)C(=O)N[C@@H]([C@@H](C)O)C(=O)N[C@@H](C)C(=O)N[C@@H]([C@@H](C)O)C(=O)N1)[C@@H](C)O)C(C)C)C(=O)N[C@@H](CC(C)C)C(=O)N[C@@H](CO)C(=O)N[C@@H](CO)C(=O)N[C@H](C(=O)N[C@@H](CC(N)=O)C(=O)N[C@H](C(=O)NCC(=O)N[C@@H](CO)C(=O)N[C@@H](CC(N)=O)C(=O)N[C@H](C(=O)N[C@@H](Cc1ccc(O)cc1)C(N)=O)[C@@H](C)O)C(C)C)[C@@H](C)O — intracellular ROS level (INS-1; DCFH-DA; 1 µM, 2 h; reference: control): ~6 fold
Nc1ncnc2c1ncn2[C@@H]1O[C@H](CO)[C@@H](O)[C@H]1O — TNF production (activated human T cells; 3.16 µM; higher = more TNF): 3830 a.u. and 2970 a.u. and 3540 a.u.
COc1cnc2cccc(N3CCc4c(cc(Cn5ccnc5C)cc4-c4cn(C)nc4C(F)(F)F)C3=O)c2c1 — EC50 (HEC265; cell growth; 120 h): > 30 µM
Nc1cccc2c1C(=O)N(C1CCC(=O)NC1=O)C2=O (stereo not drawn) — surface marker level (RPMI-8226; flow cytometry, refers to: CD118; concentration not given; reference: comparator compound alone): 53.8%
Cc1cc(Nc2ncc(Cl)c(Nc3ccccc3S(=O)(=O)C(C)C)n2)c(OC(C)C)cc1C1CCNCC1 — Emax (Aska-SS (ALK exon 2-17 deletion); cell viability): 81.2%
Cc1cc(N2CCc3c(c(C)nn3CC34CCC(NC(=O)[C@@H]5COCCN5)(CC3)CC4)C2)c2cnn(C)c2n1 — inhibition (human PBMC; qRT-PCR, refers to: CXCL10 mRNA; 100 nM, with: ssRNA): 99 ± 1%
Cc1cc(Nc2ncc(Cl)c(Nc3ccccc3S(=O)(=O)C(C)C)n2)c(OC(C)C)cc1C1CCNCC1 — log2 fold change (CLB-BAR; phosphoproteomics LC-MS/MS, refers to: BICD2 phosphorylation; 200 nM, 60 min; reference: untreated): -1.68
O=C(CCc1cc(C(=O)c2ccc(OC3CCCC3)cc2O)ccc1OCc1ccc2c(O)noc2c1)NCCOCCOCCOCCOCCOCCOCCNc1cccc2c1C(=O)N(C1CCC(=O)NC1=O)C2=O (stereo not drawn) — mRNA level (FaDu cells; RT-qPCR, refers to: FOSL1 target genes SNAI2, BMI1; concentration not given): inhibited
c1ccc2[nH]ccc2c1 — mRNA level, LS mean (HCT-8; RNA-seq, refers to: SLC16A11; concentration not given): 2.62 counts per million
CCN1CCN(Cc2ccc(NC(=O)c3ccc(C)c(-c4ccc5nc(NC(=O)C6CC6)cn5c4)c3)cc2C(F)(F)F)CC1 — pSTAT5 level (persistent SET-2; Western blot; 1 µM, 4 h): decreased
CCOC(=O)C1=C(C)NC2=C(C(=O)CC(c3cc(OC)c(OC)c(OC)c3)C2)C1c1ccccc1Cl (stereo not drawn) — EC50 (J774.A1; cytotoxicity): > 20 µM
C[C@H](Nc1ccc2c(c1)OCCn1cc(N3C(=O)OC[C@H]3C(F)F)nc1-2)C(N)=O — Hill coefficient GR curve (MKN-1; CellTiter-Glo; 120 h): 0.406
C=CC(=O)N1CCC([C@@H]2CCNc3c(C(N)=O)c(-c4ccc(Oc5ccccc5)cc4)nn32)CC1 — maximum inhibition (TMD8; calcium flux, FLIPR; 2 h preincubation, with: anti-IgM): 57.6%
O=P(O)(O)C(O)(Cn1ccnc1)P(=O)(O)O — viability (hFOB 1.19; AlamarBlue; 7.5 µM, 48 h; reference: control): 100 ± 1%
COc1ccc(-n2nc(C(C)=O)s/c2=N\N=C(/C)c2ccc(NC(=O)c3ccc(C)cc3)cc2)cc1 — toxicity (MCF7; 5 µM): 96.9%
CN(C)CCCOc1cc(NC(=O)c2cc(Cl)cc(C(=O)Nc3cc(OCCCN(C)C)c4ccccc4n3)n2)nc2ccccc12 — selectivity ratio (HT-1080; cell viability, CellTiter-Glo; 72 h; reference: IC50 HT-1080 over WI-38): 2
CCCCN1C[C@H](O)[C@@H](O)[C@@H](O)[C@H]1CO — IC50 (sample G patient fibroblasts; Gb3 level lowering, LC-MS/MS, refers to: Gb3 d18:1/20:0; 216 h): 13.1 µM
COC[C@H](NC(=O)c1cnc(C)s1)C(=O)N[C@@H](COC)C(=O)N[C@@H](Cc1ccccc1)C(=O)[C@@]1(C)CO1 — EC50 (BRD4-HiBiT cells; BRD4 degradation rescue, inhibitor; 24 h, 50% degradation rescued, with: dBET6 500 nM): 0.023 µM
CN(C)c1ncnc2c1ncn2[C@@H]1O[C@H](CO)[C@@H](O)[C@H]1O — AP-TGFα release (mock-transfected cells; TGFα shedding, agonist; 100 nM; reference: unstimulated vehicle control): 0.87% and 0.2% and 1.46%
NCCOc1cc(NC(=O)c2cc(OCc3ccc(F)cc3)cc(C(=O)Nc3cc(OCCN)c4ccccc4n3)n2)nc2ccccc12 — selectivity ratio (HT-1080; cell viability, CellTiter-Glo; 72 h; reference: IC50 HT-1080 over WI-38): 3.1
CCn1cc(-c2cc(Cn3ccnc3)cc3c2CCN([C@H](c2cc(OC)ccn2)C2CC2)C3=O)c(C(F)(F)F)n1 — EC50 (SU-DHL-8; cell growth, inhibitor; 120 h): 1.48 µM

Excerpt of the above:
CCn1cc(-c2cc(Cn3ccoc3=N)cc3c2CCN([C@@H](C)c2cc(OC)ccn2)C3=O)c(C(F)(F)F)n1 — EC50 (MDA-MB-175-VII; cell growth, inhibitor; 120 h): > 30 µM
c1ccc2[nH]ccc2c1 — mRNA level, LS mean (HCT-8; RNA-seq, refers to: SLC16A11; concentration not given): 2.62 counts per million
C=Cc1c2[n-]c(c1C)/C=c1\[n-]/c(c(C)c1C=C)=C\c1[n-]c(c(CCC(=O)O)c1C)/C=c1\[n-]c(c(C)c1CCC(=O)O)=C2.[Sn+4] — fold change (SH-SY5Y; RNA-seq, refers to: SYNJ2 mRNA; 5 µM, 5 h; reference: untreated cells): 2.44
Nc1cccc2c1C(=O)N(C1CCC(=O)NC1=O)C2=O (stereo not drawn) — surface marker level (RPMI-8226; flow cytometry, refers to: CD118; concentration not given; reference: comparator compound alone): 53.8%
Cc1ccc2c(c1)C(=O)[C@]1(O)CCN(c3ccc4nc(C)ccc4c3)C1=N2.Cl — activation (murine Trp53-/- cells; refers to: RAS, ERK1/2 and SRC; 5 µM, 48 h; reference: untreated): 2 to 3 fold
Cc1ccc(CNC(=O)Cn2cc(CSc3nc4ccccc4[nH]3)nn2)cc1 — cytotoxicity (HEK293; MTT; 62.5 ppm): 86.2%
